Assay results of several laboratories.
“And” joins repeats or separate records; there may be more than shown. ± marks the error that the study gave.

`O=S(=O)(O)C(F)(F)C(F)(F)C(F)(F)C(F)(F)F` gave an LDH release of 4.99 mU/mL and 4.59 mU/mL and 4.79 mU/mL and 5.25 mU/mL (hTERT-RPTEC-OAT1; concentration not given, 96-well plate).
For `Cc1cc(C(C)(C)c2ccc(O)c(C)c2)ccc1O`, the necrotic cells was 5.76 ± 1.6% (HepG2 spheroids; annexin V-FITC/PI flow cytometry; 1 µM, 24 h).
The LDH release of `O=C(O)C(F)(F)C(F)(F)C(F)(F)C(F)(F)F` is reported as 6.29 mU/mL and 5.56 mU/mL and 7.67 mU/mL (hTERT-RPTEC-OAT1; concentration not given, 96-well plate).
With `CC[C@H](C)[C@H](NC(=O)[C@H](CCCCN)NC(=O)[C@H](CC(C)C)NC(=O)[C@H](CCSC)NC(=O)[C@H](CO)NC(=O)[C@H](C)NC(=O)CNC(=O)[C@H](CCCCN)NC(=O)[C@H](CCCCN)NC(=O)[C@H](CC(N)=O)NC(=O)CNC(=O)[C@H](CCCCN)NC(=O)[C@H](CC(C)C)NC(=O)[C@H](CCCNC(=N)N)NC(=O)[C@@H](NC(=O)[C@H](CC(C)C)NC(=O)[C@H](Cc1ccc(O)cc1)NC(=O)[C@H](CCCCN)NC(=O)[C@H](C)NC(=O)[C@H](CCCCN)NC(=O)[C@@H]1CCCN1C(=O)[C@H](CCCCN)NC(=O)CNC(=O)[C@H](CCCNC(=N)N)NC(=O)[C@H](CC(C)C)NC(=O)[C@H](CCC(N)=O)NC(=O)[C@@H](N)Cc1ccccc1)C(C)C)C(=O)N[C@@H](CC(C)C)C(=O)N[C@@H](C)C(=O)N[C@H](C(=O)N[C@H](C(=O)N[C@@H](CCCNC(=N)N)C(=O)N1CCC[C@H]1C(=O)N[C@H](C(=O)N[C@@H](CCCCN)C(=O)N[C@@H](CCC(N)=O)C(=O)N[C@@H](CO)C(=O)N[C@@H](Cc1ccccc1)C(=O)N1CCC[C@H]1C(=O)N[C@@H](CO)C(=O)N[C@@H](CC(C)C)C(=O)N1CCC[C@H]1C(=O)O)[C@@H](C)O)[C@@H](C)O)[C@@H](C)O` the CC50 was 76 µM (HaCaT; cell viability, MTT).
For `CC1=C(O)C(=O)C=C2C1=CC=C1[C@@]2(C)CC[C@@]2(C)[C@@H]3C[C@](C)(C(=O)O)CC[C@]3(C)CC[C@]12C`, the confluence was 0.6 ± 0.05 (COS-7; 3 µM, 24 h, 0.1% DMSO, unit not given; baseline: vehicle control).
`CCN(CC)CCCC[C@H](NC(=O)[C@H](CC(C)C)NC(=O)[C@H](C)NC(=O)[C@H](Cc1ccccc1)NC(=O)c1ccc(C(C)(C)C)cc1)C(=O)N[C@@H](CO)C(=O)OC` gave an intracellular concentration of 1.36 µM (PC-3; LC-MS/MS; 30 µM, 24 h).
With `Cc1cc2c(c(O)c1O)C(=O)c1c(O)cc(O)cc1C2=O` the cell viability was 95.2 ± 13.1% (HepaRG co-cultured with HK-2; MTT; 16.67 µM, 48 h; baseline: untreated control).
`N=C(N)NCCC[C@H](NC(=O)[C@H](CCCNC(=N)N)NC(=O)[C@H](CCCNC(=N)N)NC(=O)[C@H](CCC(N)=O)NC(=O)[C@H](CCCNC(=N)N)NC(=O)[C@H](CCCNC(=N)N)NC(=O)[C@H](CCCCN)NC(=O)[C@H](CCCCN)NC(=O)[C@H](CCCNC(=N)N)NC(=O)CNC(=O)[C@H](Cc1ccc(O)cc1)NC(=O)CNC(=O)CNC(=O)CNC(=O)c1ccc2c(c1)C(=O)OC21c2ccc(O)cc2Oc2cc(O)ccc21)C(N)=O` has a transport ratio of 13.9% (hCMEC/D3 monolayers; BBB permeability, Transwell, item: CF-labelled compound; EGM-2 medium; concentration not given, 3 h, apical to basal; baseline: fluorescence added apically).
`O=C1c2ccccc2C(=O)c2ccccc21` has a viability of 62.9 ± 1.81% (HK-2 co-cultured with HepaRG; MTT; 16.67 µM, 48 h; baseline: untreated control).
The LDH release of `O=C(O)C(F)(F)C(F)(F)C(F)(F)C(F)(F)C(F)(F)C(F)(F)C(F)(F)C(F)(F)C(F)(F)C(F)(F)F` is reported as 10.1 mU/mL and 15.1 mU/mL and 11.1 mU/mL and 20.5 mU/mL (hTERT-RPTEC-OAT1; concentration not given, Transwell, apical-to-basolateral addition).
The cell viability of `COc1ccc2c(c1OC)C(=O)c1c(cc(C)c(O)c1OC)C2=O` is reported as 97.5 ± 6.42% (HK-2 co-cultured with HepaRG; MTT; 16.67 µM, 48 h; baseline: untreated control).
`O=C(Nc1cccc(OS(=O)(=O)c2ccc(Cl)cc2)c1)c1ccc2ncccc2c1` — result for viability: “not toxic” (HEK-293T; MTT; up to 100 µM).
`CC(C)C[C@H](NC(=O)[C@@H](NC(=O)[C@H](CCCNC(=N)N)NC(=O)[C@H](CCC(N)=O)NC(=O)[C@H](Cc1ccccc1)NC(=O)[C@H](Cc1ccc(O)cc1)NC(=O)[C@H](CC(N)=O)NC(=O)[C@H](Cc1c[nH]c2ccccc12)NC(=O)[C@@H](NC(=O)[C@H](CCCNC(=N)N)NC(=O)[C@H](CCCCN)NC(=O)[C@@H](N)Cc1ccccc1)C(C)C)C(C)C)C(=O)N[C@H](C(=O)N[C@@H](CCCCN)C(=O)N[C@@H](CCCCN)C(N)=O)C(C)C` has a hemolysis of 2.5 ± 0.4% (rat erythrocytes; 200 µM, 60 min, 37 °C).
The LDH release of `O=C(O)C(F)(F)C(F)(F)C(F)(F)C(F)(F)C(F)(F)F` is reported as 4.21 mU/mL and 4.49 mU/mL and 6.24 mU/mL and 3.6 mU/mL (hTERT-RPTEC-OAT1; concentration not given, 96-well plate).
`CC[C@H](C)[C@H](NC(=O)[C@H](CCCNC(=N)N)NC(=O)[C@@H](NC(=O)[C@H](CC(C)C)NC(=O)[C@H](Cc1c[nH]c2ccccc12)NC(=O)[C@H](Cc1ccc(O)cc1)NC(=O)[C@@H](NC(=O)[C@H](CO)NC(=O)[C@@H](NC(=O)[C@H](CCCNC(=N)N)NC(=O)[C@H](CCC(N)=O)NC(=O)[C@H](CCCNC(=N)N)NC(=O)[C@@H]1CCCN1C(=O)[C@H](CC(C)C)NC(=O)[C@H](CO)NC(=O)[C@@H](NC(=O)[C@H](CC(C)C)NC(=O)[C@@H]1CCCN1C(=O)[C@H](CCC(N)=O)NC(=O)[C@H](CCCCN)NC(=O)[C@H](Cc1c[nH]cn1)NC(=O)[C@H](CS)NC(=O)[C@H](CCCNC(=N)N)NC(=O)[C@H](CCCCN)NC(=O)[C@H](CO)NC(=O)[C@H](CC(C)C)NC(=O)[C@H](CO)NC(=O)[C@H](Cc1ccccc1)NC(=O)[C@H](CC(C)C)NC(=O)[C@H](CCCCN)NC(=O)[C@H](Cc1c[nH]cn1)NC(=O)[C@@H](NC(=O)[C@@H](NC(=O)[C@H](CCCCN)NC(=O)[C@H](CCC(N)=O)NC(=O)[C@H](C)NC(=O)[C@H](CCCCN)NC(=O)[C@H](CC(C)C)NC(=O)[C@H](Cc1ccccc1)NC(=O)[C@@H](N)CC(C)C)[C@@H](C)CC)C(C)C)[C@@H](C)CC)[C@@H](C)O)[C@@H](C)O)[C@@H](C)O)C(=O)O` has a CC50 of 97 µM (HaCaT; cell viability, MTT).
The viable cells of `CC(c1ccccc1)(c1ccc(O)cc1)c1ccc(O)cc1` is reported as 70.5 ± 9.47% (HepG2 spheroids, dissociated; annexin V-FITC/PI flow cytometry; 1 µM, 24 h).
With `C#CCCC[C@H]1OC(=O)[C@H](C(C)C)N(C)C(=O)[C@@H]2CCCN2C(=O)[C@H]([C@@H](C)CC)OC(=O)[C@H]([C@@H](C)CC)N(C)C(=O)[C@H]([C@@H](C)CC)NC(=O)[C@H]1C` the LC50 was > 30 µM (HEK293; resazurin reduction; 24 h).
The cell viability of `CC(=O)OC[C@H]1O[C@@H](Oc2cc(O)cc3cc4oc(C)cc(=O)c4c(O)c23)[C@H](O)[C@@H](O)[C@@H]1O` is reported as 94.5 ± 4.97% (HK-2 co-cultured with HepaRG; MTT; 33.33 µM, 48 h; baseline: untreated control).
`N#C[C@H](C[C@@H]1CCCNC1=O)NC(=O)[C@H](CC1CC1)NC(=O)c1cc2cccc(Cl)c2[nH]1` has an EC50 of 2.1 µM (cryopreserved human hepatocytes; mRNA induction, inducer, item: CYP3A4; 72 h).
With `CC[C@@H](C)[C@H]1O[C@@H](c2c(O)c(-c3ccccc3)cn(OC)c2=O)[C@H](C)C[C@@H]1C` the IC50 was > 10 µg/mL (BT-549; cytotoxicity, neutral red; 48 h).
For `CCCCCCCC(=O)NCC(=O)N[C@@H](Cc1ccccc1)C(=O)N[C@H](C=O)Cc1c[nH]cn1`, “minimum cytotoxic concentration” read > 100 µM (HEL; cell morphology).
`CC(C)C[C@H](NC(=O)[C@H](CCCNC(=N)N)NC(=O)CNC(=O)CNC(=O)CNC(=O)c1ccc2c(c1)C(=O)OC21c2ccc(O)cc2Oc2cc(O)ccc21)C(=O)N[C@@H](CO)C(=O)N[C@@H](CO)C(=O)N[C@H](C(=O)N[C@@H](CC(=O)O)C(=O)N[C@@H](CO)C(=O)N[C@@H](CC(=O)O)C(=O)N[C@@H](CC(C)C)C(=O)N[C@@H](CO)C(=O)NCC(=O)N[C@@H](CS)C(N)=O)C(C)C` has a transport ratio of 6.6% (hCMEC/D3 monolayers; BBB permeability, Transwell, item: CF-labelled compound; EGM-2 medium; concentration not given, 2 h, apical to basal; baseline: fluorescence added apically).
`CN(CC[C@H](Oc1cccc2ccccc12)c1cccs1)N=O` has an LOAEL of < 1 µM (TK6 expressing CYP2B6; micronucleus induction; 24 h, without S9).
With `CCc1cccc(C)c1N(C(=O)CCl)C(C)COC` (stereo not shown) the IC10 was 138 µM (MCF7 AREc32 cells; cell viability, IncuCyte imaging; 24 h, freely dissolved concentration).
`Oc1ccc(C(c2ccc(O)cc2)(C(F)(F)F)C(F)(F)F)cc1` has a necrotic cells of 8.06 ± 3.25% (HepG2 spheroids; annexin V-FITC/PI flow cytometry; 10 µM, 24 h).
`CC(C)c1c(C(=O)Nc2ccccc2)c(-c2ccccc2)c(-c2ccc(F)cc2)n1CC[C@@H](O)C[C@@H](O)CC(=O)O` has an IC10 of 5.22 µM (MCF7 AREc32 cells; cell viability, IncuCyte imaging; 24 h, freely dissolved concentration).
Under “highest non-cytotoxic concentration”, `NCC(=O)Nc1ccc(-n2nc(C(F)(F)F)cc2-c2ccc3c(ccc4ccccc43)c2)cc1` is recorded as < 3 µM (HEK-293T; MTT; 8 h).
For `O=c1ccc2ccccc2o1`, “point of departure” read 828 µM (HepG2; item: heme oxygenase 1; 6 h).

For quick reference, copied from above:
With `CCc1cccc(C)c1N(C(=O)CCl)C(C)COC` (stereo not shown) the IC10 was 138 µM (MCF7 AREc32 cells; cell viability, IncuCyte imaging; 24 h, freely dissolved concentration).
`Oc1ccc(C(c2ccc(O)cc2)(C(F)(F)F)C(F)(F)F)cc1` has a necrotic cells of 8.06 ± 3.25% (HepG2 spheroids; annexin V-FITC/PI flow cytometry; 10 µM, 24 h).
